Assay results gathered from unrelated publications.
Protocols differ between the studies behind these lines. ± marks the error that the study gave.
CRYBA1: CRYBA1, Alexa Fluor 488 label (Homo sapiens, UniProt P05813)
B1: NCOA3 627-829 (Homo sapiens, UniProt Q9Y6Q9); Cy5 label; sequence looked up; chain CSSDDRGHSSLTNSPLDSSCKESSVSVTSPSGVSSSTSGGVSSTSNMHGSLLQEKHRILHKLLQNGNSPAEVAKITAEATGKDTSSITSCGDGNVVKQEQLSPKKKENNALLRYLLDRDDPSDALSKELQPQVEGVDNKMSQCTSSTIPSSSQEKDPKIKTETSEEGSGDLDNLDAILGDLTSSDFYNNSISSNGSHLGTKQQ
B2: UGT1A9 (Homo sapiens, UniProt O60656); chain GKLLVVPMDGSHWFTMRSVVEKLILRGHEVVVVMPEVSWQLGRSLNCTVKTYSTSYTLEDLDREFKAFAHAQWKAQVRSIYSLLMGSYNDIFDLFFSNCRSLFKDKKLVEYLKESSFDAVFLDPFDNCGLIVAKYFSLPSVVFARGILCHYLEEGAQCPAPLSYVPRILLGFSDAMTFKERVRNHIMHLEEHLLCHRFFKNALEIASEILQTPVTEYDLYSHTSIWLLRTDFVLDYPKPVMPNMIFIGGINCHQGKPLPMEFEAYINASGEHGIVVFSLGSMVSEIPEKKAMAIADALGKIPQTVLWRYTGTRPSNLANNTILVKWLPQNDLLGHPMTRAFITHAGSHGVYESICNGVPMVMMPLFGDQMDNAKRMETKGAGVTLNVLEMTSEDLENALKAVINDKSYKENIMRLSSLHKDRPVEPLDLAVFWVEFVMRHKGAPHLRPAAHDLTWYQYHSLDVIGFLLAVVLTVAFITFKCCAYGYRKCLGKKGRVKKAHKSKTH
B3: INO80 1022-1294 (Saccharomyces cerevisiae, UniProt P53115); sequence looked up; chain VDSPFSFTTFGKTTSMLTASVANNNSSVISNSNMNLSSMSSNNISNGKFTDLIYSSRNPIKYSLPRLIYEDLILPNYNNDVDIANKLKNVKFNIFNPSTNYELCLFLSKLTGEPSLNEFFRVSTTPLLKRVIERTNGPKNTDSLSFKTITQELLEVTRNAPSEGVMASLLNVEKHAYEREYLNCIQRGYHPNVSAPPVTIEVLGSSHVTNSINNELFDPLISQALSDIPAITQYNMHVKKGIPVEDFPKTGLFPEPLNKNFSSNISMPSMDRF
B4: Tbx1 (Mus musculus, UniProt P70323); sequence looked up; chain MHFSTVTRDMEAFAASSLSGLGSPSPGADPFGPREPPPPRYDPCAAVPGAPGPPPPRAYPFAPAPGAAGSSAAESEGPGASRAAAVKAPVKKNPKVASVSVQLEMKALWDEFNQLGTEMIVTKAGRRMFPTFQVKLFGMDPMADYMLLMDFVPVDDKRYRYAFHSSSWLVAGKADPATPGRVHYHPDSPAKGAQWMKQIVSFDKLKLTNNLLDDNGQIILNSMHRYQPRFHVVYVDPRKDSEKYAEENFKTFVFEETRFTAVTAYQNHRITQLKIASNPFAKGFRDCDPEDWPRNHRPGALPLVSAFARSRNPVASPTQPNGSDKDAAEARREFDRDSGPAALGDATHPPQLLARVLSPALPGPGGLVPLPGGSGGRHSPPHADLRLEAPGASEPLHHHPYKYPAAAYDHYLGAKSRPAPYPLPGLRGHGYHPHAHPHAHPHHHHHPAVNPAAAAAAAAAANVYSSAAAPPGAYDYCPR
B5: YAH1 (Saccharomyces cerevisiae, UniProt Q12184); chain IAAHLLRTSPSLLTRTTTTTRFLPFSTSSFLNHGHLKKPKPGEELKITFILKDGSQKTYEVCEGETILDIAQGHNLDMEGACGGSCACSTCHVIVDPDYYDALPEPEDDENDMLDLAYGLTETSRLGCQIKMSKDIDGIRVALPQMTRNVNNNDFS
B6: bHLH39 (Arabidopsis thaliana, UniProt Q9M1K0); sequence looked up; chain MCALVPPLFPNFGWPSTGEYDSYYLAGDILNNGGFLDFPVPEETYGAVTAVTQHQNSFGVSVSSEGNEIDNNPVVVKKLNHNASERDRRRKINSLFSSLRSCLPASGQSKKLSIPATVSRSLKYIPELQEQVKKLIKKKEELLVQISGQRNTECYVKQPPKAVANYISTVSATRLGDNEVMVQISSSKIHNFSISNVLSGLEEDRFVLVDMSSSRSQGERLFYTLHLQVEKIENYKLNCEELSQRMLYLYEECGNSYI
B7: CRYBB1 59-252 (Homo sapiens, UniProt P53674); sequence looked up; chain YRLVVFELENFQGRRAEFSGECSNLADRGFDRVRSIIVSAGPWVAFEQSNFRGEMFILEKGEYPRWNTWSSSYRSDRLMSFRPIKMDAQEHKISLFEGANFKGNTIEIQGDDAPSLWVYGFSDRVGSVKVSSGTWVGYQYPGYRGYQYLLEPGDFRHWNEWGAFQPQMQSLRRLRDKQWHLEGSFPVLATEPPK
B8: TRM112 N43R (Saccharomyces cerevisiae, UniProt P53738); chain MKFLTTNFLKCSVKACDTSNDNFPLQYDGSKCQLVQDESIEFRPEFLLNIVDRVDWPAVLTVAAELGNNALPPTKPSFPSSIQELTDDDMAILNDLHTLLLQTSIAEGEMKCRNCGHIYYIKNGIPNLLLPPHLV
B9: MIF4GD H44A (Homo sapiens, UniProt A9UHW6); sequence looked up; chain MGEPSREEYKIQSFDAETQQLLKTALKDPGAVDLEKVANVIVDASLQDCVFSKEAGRMCYAIIQAESKQAGQSVFRRGLLNRLQQEYQAREQLRARSLQGWVCYVTFICNIFDYLRVNNMPMMALVNPVYDCLFRLAQPDSLSKEEEVDCLVLQLHRVGEQLEKMNGQRMDELFVLIRDGFLLPTGLSSLAQLLLLEIIEFRAAGWKTTPAAHKYYYSEVSD
B10: CRYBB1 149-252 (Homo sapiens, UniProt P53674); sequence looked up; chain HKISLFEGANFKGNTIEIQGDDAPSLWVYGFSDRVGSVKVSSGTWVGYQYPGYRGYQYLLEPGDFRHWNEWGAFQPQMQSLRRLRDKQWHLEGSFPVLATEPPK
B11: Etv2 (Mus musculus, UniProt P41163); sequence looked up; chain MDLWNWDEASLQEVPPGDKLTGLGAEFGFYFPEVALQEDTPITPMNVEGCWKGFPELDWNPALPHEDVPFQAEPVAHPLPWSRDWTDLGCNTSDPWSCASQTPGPAPPGTSPSPFVGFEGATGQNPATSAGGVPSWSHPPAAWSTTSWDCSVGPSGATYWDNGLGGEAHEDYKMSWGGSAGSDYTTTWNTGLQDCSIPFEGHQSPAFTTPSKSNKQSDRATLTRYSKTNHRGPIQLWQFLLELLHDGARSSCIRWTGNSREFQLCDPKEVARLWGERKRKPGMNYEKLSRGLRYYYRRDIVLKSGGRKYTYRFGGRVPVLAYQDDMGHLPGAEGQ
B12: IL34 19-242 (Homo sapiens, UniProt Q6ZMJ4); sequence looked up; chain LGNEPLEMWPLTQNEECTVTGFLRDKLQYRSRLQYMKHYFPINYKISVPYEGVFRIANVTRLQRAQVSERELRYLWVLVSLSATESVQDVLLEGHPSWKYLQEVETLLLNVQQGLTDVEVSPKVESVLSLLNAPGPNLKLVRPKALLDNCFRVMELLYCSCCKQSSVLNWQDCEVPSPQSCSPEPSLQYAATQLYPPPPWSPSSPPHSTGSVRPVRAQGEGLLP
B13: spy (Escherichia coli, UniProt P77754); chain MRKLTALFVASTLALGAANLAHAADTTTAAPADAKPMMHHKGKFGPHQDMMFKDLNLTDAQKQQIREIMKGQRDQMKRPPLEERRAMHDIIASDTFDKVKAEAQIAKMEEQRKANMLAHMETQNKIYNILTPEQKKQFNANFEKRLTERPAAKGKMPATAE

B1 (NCOA3 627-829)  EC50 (THRB/RXRA TRβ , RXRα full length 87-461 (Homo sapiens); coregulator recruitment, tr-FRET; 1 hr, pH 8, added: T3 µM): 19.1 nM
TIMP2 N-terminal domain S4E/N38Q/V71N/H97R/T99S  Ki (MMP9 catalytic domain, no fibronectin 107-215 (Homo sapiens, UniProt P14780); fluorogenic substrate cleavage, inhibitor, enzyme inhibition assay; apparent): 1.28 nM
B2 (UGT1A9)  Vmax/Km (COc1cc2c(=O)c(-c3ccc(O)cc3)coc2cc1O; steady-state kinetics; pH 7.4, 37 °C): 274 µL/min/mg
FBXO5 fragment R322A/L325A (Homo sapiens)  Ki (APC/C/CDH1 (Homo sapiens); ubiquitination assay): 810 ± 230 nM
H-EDGGSFWYGAMKALYG-NH2 (designed peptide; C-terminal amide)  IC50 (CIB1 (Homo sapiens, UniProt Q99828); competition with peptide, competitor, TR-FRET; peptide): 46 ± 13 nM
B3 (INO80 1022-1294)  relative kcat (Rvb1/Rvb2 (Saccharomyces cerevisiae); NADH-coupled assay; relative to: Rvb1/Rvb2 alone, higher = faster ATP hydrolysis): 16 fold
GABBR1 GABAB1b isoform, full length (Homo sapiens)  cell surface expression (GABBR2 R714A (Homo sapiens, UniProt O75899); anti-Flag M1 on intact cells; relative to: WT/WT heterodimer, higher = more surface expression): 77%
SERPINC1 R45E/R46E/K114E/R129E (Homo sapiens)  k2 (coagulation factor Xa (UniProt P00742); steady-state kinetics; room temperature, added: pentasaccharide H5): 3700 M⁻¹ s⁻¹
B4 (Tbx1)  reporter activation (PITX2 1-271 (Homo sapiens, UniProt Q99697-3); LEF-1 promoter luciferase; LS-8; added: PITX2A; higher = more activation): 12 fold activation
B5 (YAH1)  lipoylation (LIAS (Homo sapiens, UniProt O43766); HPLC-MS; added: NADPH; relative to: FDX2, higher = more lipoylation): 3 fold over FDX2
dinB (Escherichia coli, UniProt Q47155)  koff (dnaN 1-366 148-152 to poly-Ala (Escherichia coli, UniProt P0A988); SPR; pH 7.4, NaCl 150 mM): 0.00304 s⁻¹
B6 (bHLH39)  reporter activation (FIT Y238F (Arabidopsis thaliana, UniProt Q0V7X4); SEAP reporter; CHO; relative to: wild-type FIT, higher = more reporter activity): 20%
B7 (CRYBB1 59-252)  subunit exchange rate (CRYBA1; FRET; pH 7.5, 37 °C, 100 mM NaCl): 0.0072 ± 0.0013 min⁻¹
EGF mature (Mus musculus)  specific binding (Egfr whole, on cells (Rattus norvegicus); radioligand binding; NRK; 0.3 nM, not TGF-beta treated, added: FeSV-Fre TGF-beta): 390 cpm/well
B8 (TRM112 N43R)  MTase activity (MTQ2 (Saccharomyces cerevisiae, UniProt Q03920); eRF1 methylation; relative to: wild-type enzyme, higher = more activity): 58%
acpP, triclosan-pantetheine probe on Ser (Escherichia coli, UniProt P0A6A8)  ΔH (fabI 1-262 (Escherichia coli, UniProt P0AEK4); ITC): -56.1 ± 6.38 kcal/mol
CSF2 residues 3-end (Homo sapiens)  lower KD of high-affinity site (CSF2RB (Homo sapiens, UniProt P32927); radioligand binding; TF-1; relative to: full-length GM-CSF, higher = tighter binding): 92%
vrp1 (Schizosaccharomyces pombe, UniProt Q9P6R1)  barbed end formation (myo1 965-1217 (Schizosaccharomyces pombe, UniProt Q9Y7Z8); pyrene-actin polymerization, activator; 500 nM; relative to: no verprolin, higher = more barbed ends): 5 fold
B9 (MIF4GD H44A)  koff (SLBP, phosphorylated, multiple sites (Homo sapiens, UniProt Q14493); SPR; pH 7.4, 25 °C, NaCl 150 mM): 0.00252 s⁻¹
B10 (CRYBB1 149-252)  subunit exchange rate (CRYBA1; FRET; pH 7.5, 37 °C, 100 mM NaCl): 0.0344 ± 0.003 min⁻¹
CIKVAVS  inhibition (peptide, human polyclonal IgM RF STR; concentration not given, 5 µg/mL mAb II-481 coated, added: RF at 50% max binding concentration): 0%
COLGALT1 fragment (Homo sapiens)  cross-link abundance (PLOD3 (Homo sapiens, UniProt O60568); cross-linking; relative to: Trp158Arg mutant, higher = more cross-link): 7 fold
FGF2 (Homo sapiens, UniProt P09038)  cell proliferation (FGFR3 isoform IIIc (unknown, UniProt Q61851); cell proliferation, MTT; BaF3-FGFR3c; 20 nM, 48 h, added: unmodified decamer 4.9 µg/mL; relative to: FGF 1 with heparin, higher = more proliferation): 4%
B11 (Etv2)  reporter activity (Gata2 (Mus musculus, UniProt O09100); Lmo2 enhancer luciferase; C2C12; higher = more activation): 18 fold
Cltc (Mus musculus, UniProt Q68FD5)  co-precipitated clathrin heavy chain (Gja1, pS262; pS279/282; pS368 (Mus musculus, UniProt P23242); co-IP; mES cells, lysate; 30 min, 4 °C, added: EGF 100 ng/mL; relative to: untreated colonies, higher = more co-precipitation): 5.9 fold
Hu 15C1 monovalent, half Fc (Homo sapiens)  potency gain (FCGR1A (Homo sapiens, UniProt P12314); LPS-induced TLR4 activation; THP1-XBlue; without IVIg; relative to: format without Fc, higher = greater potency gain): > 1000 fold
RDGAWFA  inhibition (peptide, human polyclonal IgM RF MCC; concentration not given, 5 µg/mL mAb II-481 coated, added: RF at 50% max binding concentration): 32%
Neo1 S1314A/F1315A (Mus musculus)  PLA puncta frequency decrease (Cyfip1 (Mus musculus, UniProt Q7TMB8-1); proximity ligation; mouse hippocampal neurons; relative to: wild-type Neo, higher = greater decrease): 2.6 fold
TDG (human, UniProt Q13569)  acetylation rate increase (EP300 (Homo sapiens, UniProt Q09472); H3K18 acetylation, activator, mass spectrometry; relative to: without TDG, higher = faster): 1.7 fold
B12 (IL34 19-242)  koff (CSF1R Fc fusion D1-D5 20-512 (Homo sapiens, UniProt P07333); SPR; pH 7.4, NaCl 0.15 M): 0.0004 s⁻¹
B13 (spy)  binding improvement by signal peptide (SecA/SecY/SecE/SecG (Escherichia coli); co-sedimentation; relative to: mature domain, higher = stronger binding): 20 fold

Excerpt of the above:
Cltc (Mus musculus, UniProt Q68FD5)  co-precipitated clathrin heavy chain (Gja1, pS262; pS279/282; pS368 (Mus musculus, UniProt P23242); co-IP; mES cells, lysate; 30 min, 4 °C, added: EGF 100 ng/mL; relative to: untreated colonies, higher = more co-precipitation): 5.9 fold
Hu 15C1 monovalent, half Fc (Homo sapiens)  potency gain (FCGR1A (Homo sapiens, UniProt P12314); LPS-induced TLR4 activation; THP1-XBlue; without IVIg; relative to: format without Fc, higher = greater potency gain): > 1000 fold
RDGAWFA  inhibition (peptide, human polyclonal IgM RF MCC; concentration not given, 5 µg/mL mAb II-481 coated, added: RF at 50% max binding concentration): 32%
Neo1 S1314A/F1315A (Mus musculus)  PLA puncta frequency decrease (Cyfip1 (Mus musculus, UniProt Q7TMB8-1); proximity ligation; mouse hippocampal neurons; relative to: wild-type Neo, higher = greater decrease): 2.6 fold
